Assay results gathered from unrelated publications.
Every numbered part comes from another study and shows a few of its results, in no order.

Sample 1
Target: Sal-like protein 4, full length isoform B (SALL4, Homo sapiens, UniProt Q9UJQ4-2, residues 1-616)
Method: universal PBM
Form: double-stranded DNA, one strand shown
Matrix: in vitro
Tested at: not given
Setting: 8-mer, flanks averaged, mean of replicates
Reading: higher = stronger binding
Endpoint: E-score
Sequence = GATAGGAA; result = 0.0476
Sequence = CACTCTGG; result = -0.192
Sequence = AATTCCCC; result = 0.0558
Sequence = CGCAACCC; result = -0.208
Sequence = CCTTCAAA; result = 0.149
Sequence = CTCGGTCC; result = -0.339
Sequence = AAAAGGAC; result = 0.0382
Sequence = ACCTTGGG; result = -0.0774
Sequence = ACCAATCC; result = -0.119
Sequence = TCGTGTCA; result = -0.0623
Sequence = ATTTTGCG; result = 0.205
Sequence = ATCTTAGG; result = -0.0598
Sequence = CATGGGTA; result = -0.157
Sequence = CCCGAGCA; result = -0.104
Sequence = GCTAGAGC; result = -0.185
Sequence = ACTCTGAA; result = 0.0848
Sequence = ACCCGATG; result = -0.191
Sequence = CCGCAATA; result = 0.125
Sequence = ATGCGTGG; result = -0.109
Sequence = GGCTCGCA; result = -0.141
Sequence = CCTAGGCA; result = -0.0834
Sequence = CCGCGTGA; result = -0.0934
Sequence = AACGCGGA; result = -0.178
Sequence = GGGCACTA; result = -0.0594

Sample 2
Target: Histone acetyltransferase KAT6A, winged helix 1, GST fusion (KAT6A, Homo sapiens, UniProt Q92794, residues 1-85)
Method: protein binding microarray
Form: double-stranded DNA, one strand shown
Matrix: in vitro
Tested at: not given
Setting: 8-mer, flanks averaged, mean of 2 arrays, mostly near background
Reference: not given
Reading: higher = stronger binding
Endpoint: E-score
Target sequence (chain): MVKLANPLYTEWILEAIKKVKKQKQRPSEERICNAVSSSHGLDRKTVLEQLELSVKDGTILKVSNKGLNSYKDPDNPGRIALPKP
Sequence = ATATAGCC; result = -0.0057
Sequence = CTGCGGTA; result = 0.228
Sequence = CATCAATC; result = -0.0455
Sequence = CCAAGTAC; result = 0.0868
Sequence = ACTGTTTA; result = -0.0666
Sequence = ATTCGTAA; result = -0.183
Sequence = GCCGAAGC; result = 0.265
Sequence = AAGATGCC; result = 0.0403
Sequence = AATGAAAG; result = -0.0906
Sequence = AGGGTCAA; result = -0.15
Sequence = CCTGGCAC; result = -0.125
Sequence = AGTCGCCG; result = 0.373
Sequence = CCTAGATC; result = -0.0651
Sequence = AATTGGAT; result = -0.172
Sequence = TATGGTAA; result = -0.0344
Sequence = GGCTGGAC; result = 0.0486
Sequence = GCATCAGC; result = 0.144
Sequence = CTCGCCGC; result = 0.385
Sequence = ACAGAACG; result = -0.0195

Sample 3
Target: Ras GTPase-activating protein-binding protein 1, RRM domain (G3BP1, Homo sapiens, UniProt Q13283)
Sequence of UniProt Q13283 (whole entry, looked up): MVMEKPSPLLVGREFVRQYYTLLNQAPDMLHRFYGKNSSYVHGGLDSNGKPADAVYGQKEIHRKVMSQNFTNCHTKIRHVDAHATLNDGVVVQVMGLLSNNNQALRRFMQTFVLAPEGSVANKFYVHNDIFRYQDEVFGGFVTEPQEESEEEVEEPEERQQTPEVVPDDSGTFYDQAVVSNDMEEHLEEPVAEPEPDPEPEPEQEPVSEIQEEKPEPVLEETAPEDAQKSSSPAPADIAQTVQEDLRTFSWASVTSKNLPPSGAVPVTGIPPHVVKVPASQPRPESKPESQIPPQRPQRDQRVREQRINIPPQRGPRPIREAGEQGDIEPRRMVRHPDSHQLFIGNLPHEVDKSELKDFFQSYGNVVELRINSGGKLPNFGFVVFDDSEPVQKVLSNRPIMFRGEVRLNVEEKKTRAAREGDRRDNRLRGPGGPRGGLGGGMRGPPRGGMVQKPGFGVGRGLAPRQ
Method: RNA Bind-n-Seq
Form: RNA
Matrix: in vitro
Tested at: 1 µM
Setting: whole 134-nt RNA, ends assumed
With: 150 mM KCl
Reference: input library
Reading: higher = stronger binding
Endpoint: log2 enrichment
All sequences stand within: GGGAGUUCUACAGUCCGACGAUC … UGGAAUUCUCGGGUGUCAAGG
Sequence = UCCUGUGCUACACAUCGUAUGUACCGAAUCAAAUUUUUAAACCCCCCCAAACCCCCAAAAAAGUAUUAUGUUACGCCGUUCGGAUCUGCA; result = -0.571
Sequence = CACAGACAACACGCACCCACACAGACACAGAGGGAAGGGGUUGGGAUGGGGACAGGGUGCACAGCAGGGCGGGGUAGGGCCCCAGCCCCU; result = -0.34
Sequence = AAGUCCUGUGCUACACAUCGUAUGUACCGAAUCGGGGAGGGGAAAGGGGAAAGGGGAAAGUAUUAUGUUACGCCGUUCGGAUCUGCACUU; result = 1.43
Sequence = ACCAUGCAGGUGGGCAUCUUUGGGAAGUGGGGCAAAGGGGGGAUAGGGAGGGGGGUAACACUUUGGGAACAGGUGGUCCCAGGUCGUUUC; result = -0.371
Sequence = UGUGGAUGCCCUGCUGAAGAAGUCUGAGGCCCAGCAUGAACAGCCGGAAGAUGGAUGCCCCUUUGGUGCCCUGACGCAGCGCCUCCUGCA; result = -0.4
Sequence = UGGGAGGUGGAUUUUGUUUAUUUUUUUAGCUCAUUUCCAGGGGUGGGAAUUUUUUUUUAAUAUGUGUCAUGAAUAAAUUUGUUUUUGAAA; result = 1.45
Sequence = CCUCAAGUCCUGUGCUACACAUCGUAUGUACCGAAUCGGGCGGGGCGGGGCGGAAAGUAUUAUGUUACGCCGUUCGGAUCUGCACUUCCA; result = -0.126
Sequence = UGGCCCUGGUGGCAUGCAGGGAGGAAGAGGUGGCCUCAUGGAUCGUGGUGGUCCCGGUGGAAUGUUCAGAGGUGGCCGUGGUGGAGACAG; result = 0.728
Sequence = UGGCCCUGGUGUCAUGCGGGGAGGAAGAGGUGGCCUCAUGGAUCGUGGUGGUCCCGGUGGAAUGUUCAGAGGUGGCCGUGGUGGAGACAG; result = 0.846
Sequence = GUCCUGUGCUACACAUCGUAUGUACCGAAUCGGUUUUUUGGUUUUUUGGUUUUUUGGGGAAAGUAUUAUGUUACGCCGUUCGGAUCUGCA; result = -0.214
Sequence = UCAAGUCCUGUGCUACACAUCGUAUGUACCGAAUCGGAAAAAAAGGUUUGGUGGAAAGUAUUAUGUUACGCCGUUCGGAUCUGCACUUCC; result = -0.18

Sample 4
Target: RING finger protein unkempt homolog, zinc fingers 1-6, GST-SBP tag (UNK, Homo sapiens, UniProt Q9C0B0, residues 30-357)
Method: RNA Bind-n-Seq
Form: RNA
Matrix: in vitro
Tested at: not given
Setting: RNA with constant flanks, ends assumed
Reference: input RNA pool
Reading: higher = stronger binding
Endpoint: bound/input enrichment
All sequences stand within: GGGAGUUCUACAGUCCGACGAUC … CAACAGAGGAUUGAGCAUCA
Target sequence (chain): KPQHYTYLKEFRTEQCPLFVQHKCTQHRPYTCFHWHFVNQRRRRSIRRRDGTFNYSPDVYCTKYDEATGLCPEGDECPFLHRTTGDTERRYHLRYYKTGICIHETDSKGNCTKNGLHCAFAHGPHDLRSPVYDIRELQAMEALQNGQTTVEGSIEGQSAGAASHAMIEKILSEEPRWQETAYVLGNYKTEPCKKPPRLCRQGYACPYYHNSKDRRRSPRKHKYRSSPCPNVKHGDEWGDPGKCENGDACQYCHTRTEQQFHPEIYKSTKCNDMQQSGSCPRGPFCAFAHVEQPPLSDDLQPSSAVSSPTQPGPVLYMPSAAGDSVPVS
Sequence = UUUUAUUGAUCAGGUCUGUAAAUGUGUACUAAAAAAAUCAGAGUUUAUUUAUAAACAAAACCGUUUAUUUAAAGAGAAGGUCUCUUCCUUAUUGAUAUCAUGGUAUGCAUUAAUUCCAUU; result = 0.335 ratio
Sequence = GAUGUCAUCGAAGACAAAUUGAAGGGAGAGAUGAUGGAUCUCCAACAUGGCAGCCUUUUCCUCCGAACACCAAAGAUUGUCUCUGGCAAAGACUAUAAUGUAACUGCAAACUCCAAGCUG; result = 0.115 ratio
Sequence = CGGAGGCGCUACCCUCAGAUCUAUGCCAGCAGCCACAAGCUGCAGCUGGAUGUCACCUCAACCGUGCUCAGCGCCCACGACUUCUACCAUGCCAUGCAGAACAUCGUGCCUGCUUCCCAA; result = 0.0474 ratio
Sequence = AUGAUUUUGCAGUGUGGAAGCGUUGAAAAUUGAAAGUUACUGCUUUUCCACUUGCUCAUACCGUAAAGGGAUCCUUUCAGCUGCCAGUGUUGAAUAAUGUAUCAUCCAGAGUGAUGUUAU; result = 0.144 ratio
Sequence = CUGUAUUUAUAAAUGUAUAAUGUAUUUAGCUACUUUUUGGUUUAAAUGAACUUGUUGGGUCCGCUUGGUAAAUGUUAUAAUUUUUACUAUUUUCUACAAAGAAAAUAUUUUCUAAUUUAA; result = 14.5 ratio
Sequence = UUUUUUUUUUUUUGGAUACAUCUUAACAUAUAAAAAUUAAGUUUUUGCCAUUCAACACCGCCGUAUCAUAUGGCCUGGAUAUAUUUGAAUGUGUAUGAAGUAAAGUUGCUUGAGAACAGG; result = 1.4 ratio

Sample 5
Target: PABPC1L2, full length, GST fusion (mouse, UniProt A0ABA7IW68)
Method: RNAcompete
Form: RNA
Matrix: in vitro
Tested at: 20 nM
Setting: 7-mer, probes averaged, single round
Reference: mean of 7-mers
Reading: higher = stronger binding
Endpoint: 7-mer Z-score
Residues (chain): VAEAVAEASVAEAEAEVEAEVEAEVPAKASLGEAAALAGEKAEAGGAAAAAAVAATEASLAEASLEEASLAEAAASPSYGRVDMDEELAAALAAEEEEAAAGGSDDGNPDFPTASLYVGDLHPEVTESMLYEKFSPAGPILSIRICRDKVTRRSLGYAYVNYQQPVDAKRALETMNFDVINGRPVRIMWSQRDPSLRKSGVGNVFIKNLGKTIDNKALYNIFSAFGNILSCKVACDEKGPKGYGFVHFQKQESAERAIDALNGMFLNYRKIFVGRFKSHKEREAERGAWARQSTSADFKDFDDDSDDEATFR
Sequence = ACACCCC; result = -0.313
Sequence = UCGGACA; result = 0.0261
Sequence = CUGGACG; result = -0.179
Sequence = UCAGGCC; result = -0.269
Sequence = UGUUAUA; result = -0.307
Sequence = UGCUCUA; result = -0.217
Sequence = CAAAUGU; result = 0.095
Sequence = CCAACUU; result = -0.293
Sequence = CCGUAGA; result = -0.171
Sequence = GGGCUAC; result = 0.149
Sequence = UAAAUUC; result = 0.7
Sequence = UGUUUGU; result = -0.496
Sequence = UAGAGCC; result = -0.148
Sequence = CUGGUAU; result = -0.0192
Sequence = GGCAACG; result = 0.287
Sequence = CAUACUC; result = -0.186
Sequence = GUGUGAG; result = -0.253
Sequence = GGUUAUA; result = -0.0337
Sequence = UAUGAGC; result = -0.202
Sequence = CAACUAG; result = -0.202
Sequence = ACCUGAU; result = -0.222
Sequence = GCCGGAU; result = -0.0681
Sequence = UAGGGAU; result = 0.22
Sequence = UCCCUGG; result = -0.454
Sequence = AACCAGA; result = 0.24

A few entries again (sample 2):
Sequence = ACTGTTTA; result = -0.0666
Sequence = CTGCGGTA; result = 0.228
Sequence = GCATCAGC; result = 0.144
Sequence = GCCGAAGC; result = 0.265
Sequence = CTCGCCGC; result = 0.385
Sequence = GGCTGGAC; result = 0.0486
Sequence = AAGATGCC; result = 0.0403
Sequence = AGGGTCAA; result = -0.15
Sequence = CCTGGCAC; result = -0.125
